Results pooled from the literature.
Protocols differ between the studies behind these lines. Several values in a cell are separate wells, animals, samples, runs or records. ± marks the error that the study gave.

Molecule	cell line	assay	setting	how to read	EC50
C=CCn1c(=O)c2cnc(Nc3ccc(N4CCN(C)CC4)cc3)nc2n1-c1cccc(C(C)(C)O)n1	ONS-76	cell growth or viability, MTS			0.29 µM
Cc1ncsc1-c1ccc([C@H](C)NC(=O)[C@@H]2C[C@@H](O)CN2C(=O)[C@@H](NC(=O)CNC(=O)c2ccc(F)c(-c3ccc(N4C[C@@H](C)N(C)[C@@H](C)C4)c(NC(=O)c4c[nH]c(=O)cc4C(F)(F)F)c3)c2)C(C)(C)C)cc1	MV4-11	cell growth or viability, ATP luminescence			0.0089 µM
CSCC[C@H](NC(=O)[C@H](CCCCN)NC(=O)[C@H](CCCCN)NC(=O)[C@@H](NC(=O)[C@H](CCCCN)NC(=O)[C@H](CC(=O)O)NC(=O)[C@H](Cc1c[nH]c2ccccc12)NC(=O)[C@H](CC(C)C)NC(=O)[C@H](CCC(=O)O)NC(=O)[C@H](CCCCN)NC(=O)[C@@H](NC(=O)[C@@H](N)Cc1ccccc1)C(C)C)C(C)C)C(=O)NCC(=O)N[C@@H](CO)C(=O)N[C@@H](C)C(=O)N[C@@H](C)C(=O)N[C@@H](Cc1c[nH]c2ccccc12)C(=O)N[C@@H](CO)C(=O)N[C@@H](C)C(=O)N[C@@H](C)C(=O)N[C@@H](CCCCN)C(=O)NCC(=O)N[C@@H](C)C(=O)N[C@@H](Cc1ccccc1)C(=O)N[C@@H](C)C(=O)O	HEK293 cells	intracellular calcium, FLIPR	0.1% BSA		86.9 ± 12.1 µM
NC(=O)CBr	SW480 expressing Rad51-EGFP	Rad51 nuclear foci	24 h	reference: 10 µM camptothecin	5.69 µM
CC[C@H](C)[C@H](NC(=O)[C@H](CC(C)C)NC(=O)CNC(=O)[C@@H]1CCCN1C(=O)[C@H](CC(C)C)NC(=O)[C@H](C)NC(=O)[C@H](CCCCN)NC(=O)CNC(=O)[C@H](CC(C)C)NC(=O)[C@H](CCSC)NC(=O)[C@H](CCCCN)NC(=O)[C@H](C)NC(=O)[C@H](C)NC(=O)[C@H](C)NC(=O)CNC(=O)[C@H](Cc1c[nH]c2ccccc12)NC(=O)[C@@H](N)Cc1ccccc1)C(=O)N[C@@H](CO)C(=O)N[C@@H](CCSC)C(=O)N[C@@H](Cc1ccccc1)C(=O)N[C@@H](CCC(N)=O)C(=O)N[C@@H](CCCCN)C(=O)N[C@@H](CC(N)=O)C(=O)O	F11 cells	intracellular calcium, FLIPR	0.1% BSA		0.9 to 1.5 µM and 1.35 µM
COP(=S)(OC)Oc1ccc([N+](=O)[O-])c(C)c1	Caco-2	viability, MTT	72 h		31.6 ± 0.7 µM
CC[C@H](C)[C@H](NC(=O)CN)C(=O)NCC(=O)N[C@@H](CC(=O)O)C(=O)N1CCC[C@H]1C(=O)N[C@H](C(=O)N[C@H](C(=O)N[C@H]1CSSC[C@@H]2NC(=O)[C@H](CCCCN)NC(=O)[C@H]([C@@H](C)O)NC(=O)CNC(=O)[C@@H]3CCCN3C(=O)[C@H](CC(C)C)NC(=O)CNC(=O)[C@@H]3CSSC[C@H](NC(=O)[C@H]([C@@H](C)CC)NC(=O)[C@H](C)NC(=O)CNC(=O)[C@H](CO)NC(=O)[C@H](CCCCN)NC(=O)[C@H](CC(C)C)NC1=O)C(=O)N[C@@H](Cc1c[nH]cn1)C(=O)N1CCC[C@H]1C(=O)N[C@@H](C(C)C)C(=O)N[C@@H](Cc1ccccc1)C(=O)N[C@@H](CSSC[C@@H](C(=O)N[C@@H](CCCCN)C(=O)N[C@@H](CCCCN)C(=O)N1CCC[C@H]1C(=O)O)NC2=O)C(=O)N1CCC[C@H]1C(=O)N[C@@H](CCCNC(=N)N)C(=O)N[C@@H](CCCNC(=N)N)C(=O)N[C@@H](Cc1ccc(O)cc1)C(=O)N[C@@H](CCCCN)C(=O)N[C@@H](CCC(N)=O)C(=O)N[C@@H]([C@@H](C)CC)C(=O)NCC(=O)N[C@@H]([C@@H](C)O)C(=O)N3)[C@@H](C)O)C(C)C	LAD2	calcium influx			7 ± 6.3 µM
O=C(NC(=O)c1c(F)cccc1F)Nc1cc(Cl)c(F)c(Cl)c1F	Caco-2	viability, MTT	72 h		571 ± 51 µM
CC(C)C[C@H](NC=O)C(=O)N[C@@H](C)C(=O)N[C@@H](C)C(=O)N[C@@H](CC(=O)O)C(=O)N[C@@H](CC(C)C)C(=O)N[C@@H](CC(C)C)C(=O)N[C@@H](C)C(=O)N[C@@H](C)C(=O)N[C@@H](CC(C)C)C(=O)NCC(=O)N[C@@H](CC(=O)O)C(=O)N[C@@H](CC(C)C)C(=O)N[C@@H](C)C(=O)N[C@@H](CCCCN)C(=O)N[C@@H](Cc1c[nH]c2ccccc12)C(=O)N[C@@H](CC(C)C)C(=O)N[C@@H](CC(C)C)C(=O)N[C@@H](CC(=O)O)C(=O)N[C@@H](C)C(=O)N[C@@H](CC(C)C)C(=O)N[C@@H](C)C(=O)N[C@@H](CCCCN)C(=O)N[C@@H](C)C(=O)N[C@@H](C)C(=O)N[C@@H](CCCCN)C(=O)N[C@@H](CCCCN)C(=O)O (racemic)	sheep erythrocytes	turbidity	pH 7.5		40 µM
N#Cc1nn(-c2c(Cl)cc(C(F)(F)F)cc2Cl)c(N)c1[S+]([O-])C(F)(F)F (stereo not drawn)	Caco-2	viability, MTT	168 h		21.6 ± 0.5 µM
CC[C@H](C)[C@H](NC(=O)[C@H](CCCCN)NC(=O)[C@H](CC(C)C)NC(=O)[C@H](CC(C)C)NC(=O)[C@H](C)NC(=O)CNC(=O)[C@H](CC(C)C)NC(=O)[C@@H](N)Cc1ccccc1)C(=O)NCC(=O)N[C@@H](C)C(=O)N[C@@H](CCCCN)C(=O)N[C@@H](CC(C)C)C(=O)N[C@@H](CC(C)C)C(=O)N1CCC[C@H]1C(=O)N[C@@H](CO)C(=O)N[C@H](C(=O)N[C@H](C(=O)NCC(=O)N[C@@H](CC(C)C)C(=O)N[C@@H](Cc1ccccc1)C(=O)N[C@@H](CCCCN)C(=O)N[C@@H](CCCCN)C(=O)N[C@@H](CCCCN)C(=O)N[C@@H](CCC(N)=O)C(=O)N[C@@H](CCC(N)=O)C(=O)O)C(C)C)C(C)C	HEK293 cells	intracellular calcium, FLIPR	0.1% BSA		0.89 ± 0.05 µM
[Cl][Au].c1ccc(P(c2ccccc2)c2ccccc2)cc1	MCF-10A	cell growth or viability, resazurin	72 h		18.9 µM
CC1(C)[C@H](C(=O)O[C@H](C#N)c2cccc(Oc3ccccc3)c2)[C@@H]1C=C(Br)Br	Caco-2	viability, MTT	240 h		112 ± 3.3 µM
eburicol	KB cells	SRB	3 days		> 20 µM
CC(C)C[C@H](NC(=O)CNC(=O)[C@H](CCC(=O)O)NC(=O)[C@H](CCCCN)NC(=O)[C@H](CC(C)C)NC(=O)[C@H](C)NC(=O)[C@H](C)NC(=O)CNC(=O)[C@H](C)NC(=O)[C@H](CCCCN)NC(=O)[C@H](CCC(=O)O)NC(=O)[C@H](CC(C)C)NC(=O)[C@H](CCCCN)NC(=O)[C@H](CCCCN)NC(=O)[C@H](CC(C)C)NC(=O)[C@H](CC(C)C)NC(=O)[C@H](CCCCN)NC(=O)[C@H](Cc1c[nH]c2ccccc12)NC(=O)[C@@H](N)CCCCN)C(=O)N[C@@H](CC(C)C)C(=O)N[C@@H](CCCCN)C(=O)N[C@@H](C)C(=O)NCC(=O)N1CCC[C@H]1C(=O)N[C@@H](C)C(=O)N[C@@H](CC(C)C)C(=O)N[C@@H](C)C(=O)N[C@@H](CC(C)C)C(=O)N[C@@H](CC(C)C)C(=O)NCC(=O)N[C@@H](C)C(=O)N[C@@H](C)C(=O)N[C@@H](C)C(=O)N[C@@H](C)C(=O)N[C@@H](CC(C)C)C(=O)N[C@@H](C)C(=O)N[C@@H](CCCCN)C(N)=O	sheep erythrocytes	turbidity	pH 7.5		85 ± 8 µM
CCCCCC(CC(=O)CCc1ccc(O)c(OC)c1)SC[C@H](NC(=O)CC[C@H](N)C(=O)O)C(=O)NCC(=O)O (stereo partly drawn)	Caco-2/BBe, 3D spheroids	cytotoxicity, ATP content	11 days		182 µM
CC1(C)[C@H](C(=O)O[C@H](C#N)c2cccc(Oc3ccccc3)c2)[C@@H]1/C=C(\Cl)C(F)(F)F (racemic)	Caco-2	viability, MTT	72 h		72.9 ± 2.7 µM
CC[C@H](C)[C@H](NC(=O)[C@H](Cc1c[nH]c2ccccc12)NC(=O)[C@H](CCCCN)NC(=O)[C@@H](NC(=O)[C@H](CC(C)C)NC(=O)[C@H](CC(=O)O)NC(=O)CNC(=O)[C@@H](NC(=O)[C@@H](NC(=O)[C@H](CO)NC(=O)[C@@H](NC(=O)[C@@H](NC(=O)[C@H](CC(=O)O)NC(=O)[C@H](CCC(N)=O)NC(=O)[C@H](C)NC(=O)[C@H](CCSC)NC=O)[C@@H](C)CC)[C@@H](C)CC)[C@@H](C)O)[C@@H](C)CC)C(C)C)C(=O)N[C@H](C(=O)N[C@@H](CC(=O)O)C(=O)N[C@H](C(=O)N[C@H](C(=O)N[C@@H](CC(N)=O)C(=O)N[C@@H](CCCCN)C(=O)N[C@@H](Cc1ccccc1)C(=O)N[C@H](C(=O)N[C@@H](CCCCN)C(=O)N[C@@H](CCCCN)C(=O)O)[C@@H](C)O)C(C)C)[C@@H](C)O)[C@@H](C)CC	sheep erythrocytes	turbidity	pH 7.5		12.7 ± 2.4 µM

For quick reference, copied from above:
Molecule	cell line	assay	setting	how to read	EC50
CC[C@H](C)[C@H](NC(=O)CN)C(=O)NCC(=O)N[C@@H](CC(=O)O)C(=O)N1CCC[C@H]1C(=O)N[C@H](C(=O)N[C@H](C(=O)N[C@H]1CSSC[C@@H]2NC(=O)[C@H](CCCCN)NC(=O)[C@H]([C@@H](C)O)NC(=O)CNC(=O)[C@@H]3CCCN3C(=O)[C@H](CC(C)C)NC(=O)CNC(=O)[C@@H]3CSSC[C@H](NC(=O)[C@H]([C@@H](C)CC)NC(=O)[C@H](C)NC(=O)CNC(=O)[C@H](CO)NC(=O)[C@H](CCCCN)NC(=O)[C@H](CC(C)C)NC1=O)C(=O)N[C@@H](Cc1c[nH]cn1)C(=O)N1CCC[C@H]1C(=O)N[C@@H](C(C)C)C(=O)N[C@@H](Cc1ccccc1)C(=O)N[C@@H](CSSC[C@@H](C(=O)N[C@@H](CCCCN)C(=O)N[C@@H](CCCCN)C(=O)N1CCC[C@H]1C(=O)O)NC2=O)C(=O)N1CCC[C@H]1C(=O)N[C@@H](CCCNC(=N)N)C(=O)N[C@@H](CCCNC(=N)N)C(=O)N[C@@H](Cc1ccc(O)cc1)C(=O)N[C@@H](CCCCN)C(=O)N[C@@H](CCC(N)=O)C(=O)N[C@@H]([C@@H](C)CC)C(=O)NCC(=O)N[C@@H]([C@@H](C)O)C(=O)N3)[C@@H](C)O)C(C)C	LAD2	calcium influx			7 ± 6.3 µM
